Published values of several laboratories.
A part holds a random share of what one study measured. Positions count from the first letter of the parent shown.

Study 1 — technique: RNA Bind-n-Seq; molecule type: RNA; medium: in vitro; tested at: 1 µM; setting: whole 134-nt RNA, ends assumed; together with: 150 mM KCl; relative to: input library; reading: higher = stronger binding
Target: Ras GTPase-activating protein-binding protein 1, RRM domain (G3BP1, Homo sapiens, UniProt Q13283)
Chain of UniProt Q13283 (whole entry, looked up): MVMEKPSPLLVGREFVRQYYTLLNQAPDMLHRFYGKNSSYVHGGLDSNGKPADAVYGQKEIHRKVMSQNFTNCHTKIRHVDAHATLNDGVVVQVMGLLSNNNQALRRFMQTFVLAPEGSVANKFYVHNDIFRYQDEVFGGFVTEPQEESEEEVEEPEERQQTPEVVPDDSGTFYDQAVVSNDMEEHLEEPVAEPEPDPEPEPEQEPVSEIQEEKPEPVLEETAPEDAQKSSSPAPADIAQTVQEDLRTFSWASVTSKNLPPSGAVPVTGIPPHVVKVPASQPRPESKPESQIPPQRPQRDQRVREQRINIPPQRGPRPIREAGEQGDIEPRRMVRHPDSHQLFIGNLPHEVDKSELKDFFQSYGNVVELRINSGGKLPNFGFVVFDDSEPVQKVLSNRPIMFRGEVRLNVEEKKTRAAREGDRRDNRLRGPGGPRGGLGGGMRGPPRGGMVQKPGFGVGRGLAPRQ
Sequence	log2 enrichment
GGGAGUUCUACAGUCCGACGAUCUGGGGUCUGCGUACGCCUGGAGUCCUUCCCCGCUGUGCUCAGCAUGGACCCUAUCCGGAGCUUCUGCGGGAAGCUGCGGUCUCUGGCCAGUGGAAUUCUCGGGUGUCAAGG	-0.509
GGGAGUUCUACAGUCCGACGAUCUGUUGGAGGGACGAUGGUCCGCUCCGGGCAGGACCCUUACGCCCGCAACAAGUUCAACCAGGUGGAGAGUGAUAAGCUUCGAAUGGACAGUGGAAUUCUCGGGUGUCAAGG	-0.425
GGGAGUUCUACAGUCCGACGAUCCUCAAGUCCUGUGCUACACAUCGUAUGUACCGAAUCGGGAGGGAAAGGGAGGGAAAGUAUUAUGUUACGCCGUUCGGAUCUGCACUUCCAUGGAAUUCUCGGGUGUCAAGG	0.738
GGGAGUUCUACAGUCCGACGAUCUGGACCCGGAGCUGAUGCAGAAGUUCAGCUGCCUGGGCACCACCGACAAGGACGUGCUCAUCUCCGAGUUCCAGAGGCUGCUCGGCUUCCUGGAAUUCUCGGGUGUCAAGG	0.0407
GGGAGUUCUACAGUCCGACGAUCAGUCCUGUGCUACACAUCGUAUGUACCGAAUCGGUUUGGAAAAAAAGGUUUUUUUGGAAAGUAUUAUGUUACGCCGUUCGGAUCUGCACUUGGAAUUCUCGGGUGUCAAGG	-0.226
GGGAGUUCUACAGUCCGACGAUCCCUGUGCUACACAUCGUAUGUACCGAAUCGGGGUUUUUUUGGGGUUUGGGGUUUUUGGGGAAAGUAUUAUGUUACGCCGUUCGGAUCUGCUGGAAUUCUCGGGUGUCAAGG	0.581
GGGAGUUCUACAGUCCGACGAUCUCAAGUCCUGUGCUACACAUCGUAUGUACCGAAUCGGGAAGGGGAAGGGGAAGGAAAGUAUUAUGUUACGCCGUUCGGAUCUGCACUUCCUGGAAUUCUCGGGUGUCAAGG	-0.157
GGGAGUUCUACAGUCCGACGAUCCUCAAGUCCUGUGCUACACAUCGUAUGUACCGAAUCGGGGAGGGAGGGGAGGGAAAGUAUUAUGUUACGCCGUUCGGAUCUGCACUUCCAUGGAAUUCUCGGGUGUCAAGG	0.722
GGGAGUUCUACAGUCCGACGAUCACCAUGCAGGUGGGCAUCUUUGGGAAGUGGGGCAAGGGGGGGAUAGGGAGGGGGAUAACACUUUGGGAACAGGUGGUCCCAGGUCGUUUCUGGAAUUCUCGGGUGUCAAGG	0.385

Study 2 — technique: competition protein-binding microarray; molecule type: double-stranded DNA, one strand shown; medium: in vitro; tested at: 2 µM; together with: Cbf1 competitor, 0.05 µM; reading: higher = stronger binding
Target: Phosphate system positive regulatory protein PHO4, full length, GST-tagged (PHO4, Saccharomyces cerevisiae, UniProt P07270, residues 1-312)
Setting: whole 60-bp probe, lowest competitor level
Target sequence (chain): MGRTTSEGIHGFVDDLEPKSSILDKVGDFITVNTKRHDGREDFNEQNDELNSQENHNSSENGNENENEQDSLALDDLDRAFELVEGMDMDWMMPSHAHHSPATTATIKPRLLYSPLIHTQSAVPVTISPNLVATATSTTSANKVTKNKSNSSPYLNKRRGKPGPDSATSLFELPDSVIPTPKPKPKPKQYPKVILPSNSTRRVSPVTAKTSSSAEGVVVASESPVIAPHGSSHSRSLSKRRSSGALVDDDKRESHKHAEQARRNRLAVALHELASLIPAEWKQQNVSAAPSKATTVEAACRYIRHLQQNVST
Sequence	fluorescence intensity [a.u.]
CACTTTTCTGGGTCTCTCGTGGTAGTCTTCCTTGTTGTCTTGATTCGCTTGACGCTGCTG	7460
GAAAGCATATCATATCACATGTACAGATTGAGCATAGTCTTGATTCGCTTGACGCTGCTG	8590
CGTCCTAGTGATTGTCACCTCACTTCCATGAGGAAGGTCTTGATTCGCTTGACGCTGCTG	4730
CTTCTGTAAATTTGTCACCTCACTTGACGCGCCCCGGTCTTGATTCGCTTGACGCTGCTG	3780
TTGGAAGAGAACCGTCACGTAGGGATGATTTAGAATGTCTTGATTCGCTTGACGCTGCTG	5480
GCTTCGATGTTTCCTCACGTTGTGATGTTACTTCAGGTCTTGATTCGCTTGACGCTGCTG	9330
TCGCTCTTTTCACTGCTCGTGCCGATGCAACGCTCCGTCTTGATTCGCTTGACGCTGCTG	9600
AGAACCGTTAAATTCCCCGTGCTTTCTCGCATTAAGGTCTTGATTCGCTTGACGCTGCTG	8550
TCTTCTTTGCCACATCACCTGACGCACCAAAGACAGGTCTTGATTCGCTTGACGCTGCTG	5440
AAAGCGGTAATTTGTCGCGTGGGTGCAGATATCTATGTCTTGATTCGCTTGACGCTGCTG	9820
AAAGCGGTAATTTGTCACAGAACTTCACATATCTATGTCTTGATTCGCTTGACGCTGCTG	3200
TACCACACAGTCATACTCGTGATGGATTATGTGGTAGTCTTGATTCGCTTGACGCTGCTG	8510
CTTTCCCGATCTTGACAGGTGGGTGTAGCACATTTGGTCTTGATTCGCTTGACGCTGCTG	6300
CGTTATTGAAAATCTCACGTGATGGTATCCACTAATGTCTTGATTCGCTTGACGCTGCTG	14600
TACTGCATAAATGTTTGTTAGTGTCAATGAGCTTGAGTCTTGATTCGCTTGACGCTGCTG	3640
GTCTTGTCTCATTGGCCTGTGGGTGTCCCCACTTCAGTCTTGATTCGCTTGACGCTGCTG	4580
CTAACGAAGGTTTGTGCCGTGGGTGACAAGCCAAGTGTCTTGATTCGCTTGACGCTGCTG	4940
CATACCCAACCTTGATGCGTGGGTGAAGATATTTGTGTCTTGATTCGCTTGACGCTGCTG	9450
CATACCCAACCTTGTGCTGTGGGTGAAGATATTTGTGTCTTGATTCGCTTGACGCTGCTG	7290

Study 3 — target: CCNA2, cyclin fold, Cln2 fusion (human); technique: yeast growth competition, sequencing; medium: yeast; setting: strong parent motif; relative to: not given; reading: higher = stronger binding
Parent: MICAL3 docking peptide (human); LQLRRQLSFSEDS; partner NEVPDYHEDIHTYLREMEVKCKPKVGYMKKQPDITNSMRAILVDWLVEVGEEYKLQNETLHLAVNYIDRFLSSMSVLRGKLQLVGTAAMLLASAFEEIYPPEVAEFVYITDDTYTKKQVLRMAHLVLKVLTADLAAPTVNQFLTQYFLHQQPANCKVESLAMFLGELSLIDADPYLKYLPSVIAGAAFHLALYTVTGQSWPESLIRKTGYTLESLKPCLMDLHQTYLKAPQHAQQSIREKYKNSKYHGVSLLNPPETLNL
Substitution	normalised enrichment score
R4M	0.222
R5P	-0.214
R5Y	0.256
F9D	-0.102
L3P	4.87
L3F	4.74
S8V	4.2
R4I	0.59
D12R	3.1
R5H	0.332
Q6A	3.02
D12L	3.43
Q2M	3.22
L7P	-0.516
E11Y	2.38
S8Y	2
L3I	5.2
L7N	-0.107

Study 4 — technique: RNA Bind-n-Seq; molecule type: RNA; medium: in vitro; tested at: 365 nM; relative to: no-protein control; reading: higher = stronger binding
Target: RNA binding protein fox-1 homolog 2, RRM domain, GST-SBP tag (RBFOX2, Homo sapiens, UniProt O43251-10, residues 100-194)
Setting: natural RNA segment, single round, ends assumed
Target sequence (chain): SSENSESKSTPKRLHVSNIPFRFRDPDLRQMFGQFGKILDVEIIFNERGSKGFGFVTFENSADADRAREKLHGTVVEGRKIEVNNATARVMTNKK
Sequence	RBNS enrichment (R)
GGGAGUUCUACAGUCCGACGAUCAGGGUCUCUGAGCUGACUCUGUAUUAAGGGAAAUUCUGCACACCACAGGUGAGGCUUUUUUCAGAUCAGUGGCCACCUCUUUUAGUCUGAGGAAUCCCAGAAGCAACCAGUGGAAUUCUCGGGUGCCAA	0.358
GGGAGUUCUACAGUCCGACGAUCGGGGCUGAUUUUAUUACCAGGUUACCCUGUUCUAGAUCAGGAGGGUCUAUUUCCUGUUGCCGCUCUGCAGCCUGGACCUGUGGACCCUGGUUGUAAAGAGUAAAACUGUAUGGAAUUCUCGGGUGCCAA	0.341
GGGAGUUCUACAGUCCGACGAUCAUUGCACUUCACUCUGUUUUCAGGGGGAUUGGGGACAUUCGGGGAGACUGUAUCUGUCUACUUUGUGUGACUGUUUUGAGGGACUGUCCCAUCAGUGAACAGAUUGCAUGUGGAAUUCUCGGGUGCCAA	6.12
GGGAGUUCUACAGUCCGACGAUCCAGAUCUUUUAAAAACACUUGUCUCAUGUAAUUGAGACCCGCCACCAUCGCAGAUGAGUGACAAGAGAGAAGGCUGUCAACACUUCGGUACAUGGUGAUCUUAAAAACACUGGAAUUCUCGGGUGCCAA	0.322
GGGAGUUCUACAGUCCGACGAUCACUUGACCAUCGGUGGCCAUUUUCCAAGCCAGUCUGGUCAAGACUCAUGGCUGAACCUCUGAGACUGAGCCUUGGGGAGCACAGCUCUACUCUGGUUACACGGAUCACCUUGGAAUUCUCGGGUGCCAA	0.183
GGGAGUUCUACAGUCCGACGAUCGCCUGCUGCCCUUUCCUGGCAGGGCUGGUGGAGUCUUCCCUCAAAGCAUGCCUUACCCAGCUGGGAAGUCUCUGCCCUGAUCUGGUACUCCUUGUAGUAAGCUGUUUUCUUGGAAUUCUCGGGUGCCAA	5.4
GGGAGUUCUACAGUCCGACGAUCCUCCUCCCUUCAGACCCAUCAUUGAGAACAAAUGUAAGAAAUCCCUUCCCACCACCCUCCCUGCCUCCCAGGCCCUCUGCGGGGGAAACAAGAUCACCCAGCAUCCUUCCUGGAAUUCUCGGGUGCCAA	0.729
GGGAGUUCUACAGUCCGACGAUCGUUUUUUUAAUUGUGGUUGUUCUGACGUGUGAAAUUUAAGGAAAGAGCCAUUUUUUAAAAAUGCCGAGCAGGGCAAUGCAAGUACAGCCAAAUAUUAGACUUGAUGUGCAUGGAAUUCUCGGGUGCCAA	0.818

Repeated from above (study 4):
Sequence	RBNS enrichment (R)
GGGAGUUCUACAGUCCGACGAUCAGGGUCUCUGAGCUGACUCUGUAUUAAGGGAAAUUCUGCACACCACAGGUGAGGCUUUUUUCAGAUCAGUGGCCACCUCUUUUAGUCUGAGGAAUCCCAGAAGCAACCAGUGGAAUUCUCGGGUGCCAA	0.358
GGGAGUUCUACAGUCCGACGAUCGGGGCUGAUUUUAUUACCAGGUUACCCUGUUCUAGAUCAGGAGGGUCUAUUUCCUGUUGCCGCUCUGCAGCCUGGACCUGUGGACCCUGGUUGUAAAGAGUAAAACUGUAUGGAAUUCUCGGGUGCCAA	0.341
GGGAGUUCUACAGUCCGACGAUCAUUGCACUUCACUCUGUUUUCAGGGGGAUUGGGGACAUUCGGGGAGACUGUAUCUGUCUACUUUGUGUGACUGUUUUGAGGGACUGUCCCAUCAGUGAACAGAUUGCAUGUGGAAUUCUCGGGUGCCAA	6.12
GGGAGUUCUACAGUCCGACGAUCCAGAUCUUUUAAAAACACUUGUCUCAUGUAAUUGAGACCCGCCACCAUCGCAGAUGAGUGACAAGAGAGAAGGCUGUCAACACUUCGGUACAUGGUGAUCUUAAAAACACUGGAAUUCUCGGGUGCCAA	0.322
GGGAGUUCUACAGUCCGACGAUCACUUGACCAUCGGUGGCCAUUUUCCAAGCCAGUCUGGUCAAGACUCAUGGCUGAACCUCUGAGACUGAGCCUUGGGGAGCACAGCUCUACUCUGGUUACACGGAUCACCUUGGAAUUCUCGGGUGCCAA	0.183
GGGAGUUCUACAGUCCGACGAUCGCCUGCUGCCCUUUCCUGGCAGGGCUGGUGGAGUCUUCCCUCAAAGCAUGCCUUACCCAGCUGGGAAGUCUCUGCCCUGAUCUGGUACUCCUUGUAGUAAGCUGUUUUCUUGGAAUUCUCGGGUGCCAA	5.4
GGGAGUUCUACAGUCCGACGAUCCUCCUCCCUUCAGACCCAUCAUUGAGAACAAAUGUAAGAAAUCCCUUCCCACCACCCUCCCUGCCUCCCAGGCCCUCUGCGGGGGAAACAAGAUCACCCAGCAUCCUUCCUGGAAUUCUCGGGUGCCAA	0.729
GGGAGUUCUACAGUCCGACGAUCGUUUUUUUAAUUGUGGUUGUUCUGACGUGUGAAAUUUAAGGAAAGAGCCAUUUUUUAAAAAUGCCGAGCAGGGCAAUGCAAGUACAGCCAAAUAUUAGACUUGAUGUGCAUGGAAUUCUCGGGUGCCAA	0.818
